{"data": "Experimental data of several laboratories", "note": "± marks the error that the study gave."}
{"Structure (SMILES)": "CC[C@H](C)[C@H](NC(=O)[C@H](C)NC(=O)[C@H](CCC(=O)O)NC(=O)[C@H](CCC(=O)O)NC(=O)[C@H](CC(C)C)NC(=O)[C@H](CCCCN)NC(=O)[C@H](CCCCN)NC(=O)[C@H](CCSC)NC(=O)[C@H](CCC(=O)O)NC(=O)[C@H](Cc1ccc(O)cc1)NC(=O)[C@H](CCC(=O)O)NC(=O)[C@H](CC(C)C)NC(=O)[C@H](CC(=O)O)NC(=O)[C@H](CC(C)C)NC(=O)[C@H](Cc1ccccc1)NC(=O)[C@@H](NC(=O)[C@@H](NC(=O)[C@H](CC(N)=O)NC(=O)[C@@H](NC(=O)[C@H](CCC(N)=O)NC(=O)[C@H](CC(=O)O)NC(=O)[C@H](CC(C)C)NC(=O)[C@@H](N)CO)[C@@H](C)CC)C(C)C)[C@@H](C)O)C(=O)N[C@@H](CCCCN)C(=O)N[C@@H](CCCCN)C(=O)N[C@@H](CC(C)C)C(=O)N[C@@H](CCC(=O)O)C(=O)N[C@@H](CCC(=O)O)C(=O)N[C@@H](CO)C(=O)N[C@@H](Cc1ccc(O)cc1)C(=O)N[C@H](C(=O)N[C@@H](CC(=O)O)C(=O)N[C@@H](CC(C)C)C(=O)N[C@@H](CCCCN)C(=O)N[C@@H](CCC(=O)O)C(=O)N[C@@H](CC(C)C)C(=O)O)[C@@H](C)CC", "medium": "water", "solubility": "21000 ± 1150 µM"}
{"Structure (SMILES)": "COC(=O)OCOc1c2n(ccc1=O)N([C@@H]1c3ccccc3SCc3c1ccc(F)c3F)[C@@H]1COC3(CC3)CN1C2=O", "pH": "pH 7", "solubility": "3 µg/mL"}
{"Structure (SMILES)": "Cn1c(=O)cnc2ccc(F)c(CCNC[C@H]3CN(c4cnc5c(n4)NC(=O)CO5)C(=O)O3)c21", "medium": "aqueous buffer", "solubility": "105 µM"}
{"Structure (SMILES)": "CNC(=O)c1cc(C)ccc1OCCc1cc(F)cc(F)c1", "medium": "PBS", "time": "30 (unit not given)", "pH": "pH 7.4", "solubility": "50 µM"}
{"Structure (SMILES)": "CC[C@H](C)[C@@H]1NC(=O)[C@H](CO)NC(=O)[C@H](CC(C)C)NC(=O)[C@H](CC(C)C)N(C)C(=O)[C@@H](Cc2ccc(O)cc2)NC(=O)[C@@H](Cc2ccc(O)cc2)NC(=O)CSC[C@@H](C(=O)O)NC(=O)CNC(=O)[C@@H](C(C)C)NC(=O)[C@H]2CCCN2C(=O)[C@H](C)NC1=O", "medium": "HBSS", "pH": "pH 7.4", "solubility": "708 µM"}
{"Structure (SMILES)": "CCc1cc(C)cc(CC)c1-c1c(OC(=O)C(C)(C)C)n2n(c1=O)CCOCC2", "medium": "PBS", "pH": "pH 7.4", "temperature": "25 °C", "setting": "2% DMSO", "solubility": "357 µM"}
{"Structure (SMILES)": "CC1=C(C)/C(=C/c2cc(Cc3ccc(OC(F)(F)F)cc3)c(C)[nH]2)N=C1c1ccc[nH]1.Cl", "medium": "potassium phosphate buffer", "time": "1.5 h", "pH": "pH 7.4", "temperature": "room temperature", "setting": "100 mM buffer", "solubility": "38.6 µM"}
{"Structure (SMILES)": "CN(C)S(=O)(=O)NCC1CCOC2(CCN(C(=O)C3(c4ccncc4)CCCC3)CC2)C1 (stereo not drawn)", "pH": "pH 7.4", "solubility": "180 µM"}
{"Structure (SMILES)": "C#Cc1ccc2c(c1)C(c1ccccn1)=NCc1c(-c3cnco3)ncn1-2", "medium": "DMF", "time": "24 h", "temperature": "25 °C", "setting": "thermodynamic equilibrium", "solubility": "4030 µg/mL"}
{"Structure (SMILES)": "Cc1nc([C@@](C)(CC2CC2)NC(=O)c2cc(OCC(F)(F)F)c(C3CC3)cn2)no1", "method": "LYSA", "solubility": "4.2 ± 0.1 µg/mL"}
{"Structure (SMILES)": "Cc1[nH]c(/C=C2\\N=C(c3ccc[nH]3)C=C2OC(C)C)cc1Cc1ccc(OC(F)(F)F)cc1.Cl", "medium": "potassium phosphate buffer", "time": "1.5 h", "pH": "pH 7.4", "temperature": "room temperature", "setting": "100 mM buffer", "solubility": "12.2 µM"}
{"Structure (SMILES)": "CCOC(=O)N1C[C@H](CC(C)C)N[C@H](c2ccc(C)nc2)C1", "method": "shake-flask, LC-HRMS", "medium": "aqueous buffer", "time": "16 h", "pH": "pH 6.8", "solubility": "> 750 µM"}
{"Structure (SMILES)": "CN(C)S(=O)(=O)NCC1CCOC2(CCN(C(=O)C3(c4ccccc4Cl)CCCC3)CC2)C1 (stereo not drawn)", "pH": "pH 7.4", "solubility": "240 µM"}
{"Structure (SMILES)": "COc1ccc(-c2oc3cc(OC)cc(OC)c3c(=O)c2OC)cc1", "method": "HPLC", "medium": "ethanol:butylene glycol 75:25", "solubility": "6228 ± 21 ppm"}
{"Structure (SMILES)": "Clc1ccc([C@H]2COC[C@@H](c3cccnc3)N2)cc1", "method": "shake-flask, LC-HRMS", "medium": "aqueous buffer", "time": "16 h", "pH": "pH 6.8", "solubility": "< 4 µM"}
{"Structure (SMILES)": "COC1=C(OC)/C(=C/c2cc(Cc3ccc(Cl)cc3)c(C)[nH]2)N=C1c1ccc[nH]1.Cl", "medium": "potassium phosphate buffer", "time": "1.5 h", "pH": "pH 7.4", "temperature": "room temperature", "setting": "100 mM buffer", "solubility": "8.32 µM"}
{"Structure (SMILES)": "COc1cc2c(cc1NC(=O)c1ccc(C(C)(C)C)cc1)CCCC2", "pH": "pH 7.4", "solubility": "5 µM"}
{"Structure (SMILES)": "CCC[C@H](C)[C@H]1CN(C(=O)OCC)C[C@@H](c2cccnc2)N1", "method": "shake-flask, LC-HRMS", "medium": "aqueous buffer", "time": "16 h", "pH": "pH 6.8", "solubility": "> 750 µM"}
{"Structure (SMILES)": "COc1cc(Nc2ncc(F)c(Nc3ccc4c(n3)NC(=O)C(C)(C)O4)n2)cc(OC)c1OC", "medium": "HEPES buffer", "time": "3 h", "pH": "pH 7.4", "setting": "0.1% DMSO", "solubility": "12.1 µM"}
{"Structure (SMILES)": "C=C(C)c1ccc(OCCc2cccc(F)c2)c(C(N)=O)c1", "medium": "PBS", "time": "30 (unit not given)", "pH": "pH 7.4", "solubility": "25 µM"}
{"Structure (SMILES)": "CC[C@H](C)[C@H](NC(=O)[C@H](CCC(=O)O)NC(=O)[C@H](CCCCN)NC(=O)[C@H](CC(C)C)NC(=O)[C@H](CC(=O)O)NC(=O)[C@@H](NC(=O)[C@H](Cc1ccc(O)cc1)NC(=O)[C@H](CO)NC(=O)[C@H](CCC(=O)O)NC(=O)[C@H](CCC(=O)O)NC(=O)[C@H](CC(C)C)NC(=O)[C@H](CCCCN)NC(=O)[C@H](CCCCN)NC(=O)[C@@H](NC(=O)[C@H](C)NC(=O)[C@H](CCC(=O)O)NC(=O)[C@H](CCC(=O)O)NC(=O)[C@H](CC(C)C)NC(=O)[C@H](CCCCN)NC(=O)[C@H](CCCCN)NC(=O)[C@H](CCSC)NC(=O)[C@H](CCC(=O)O)NC(=O)[C@H](Cc1ccc(O)cc1)NC(=O)[C@H](CCC(=O)O)NC(=O)[C@H](CC(C)C)NC(=O)[C@H](CC(=O)O)NC(=O)[C@H](CC(C)C)NC(=O)[C@H](Cc1ccccc1)NC(=O)[C@@H](NC(=O)[C@@H](NC(=O)[C@H](CC(N)=O)NC(=O)[C@@H](NC(=O)[C@H](CCC(N)=O)NC(=O)[C@H](CC(=O)O)NC(=O)[C@H](CC(C)C)NC(=O)[C@@H](N)CO)[C@@H](C)CC)C(C)C)[C@@H](C)O)[C@@H](C)CC)[C@@H](C)CC)C(=O)O", "medium": "water", "solubility": "19400 ± 238 µM"}
{"Structure (SMILES)": "CC[C@H](C)[C@H]1C(=O)N[C@@H](Cc2ccccc2)C(=O)N[C@H](C(=O)O)CSCC(=O)N[C@H](Cc2ccc(O)cc2)C(=O)NCC(=O)N[C@@H](CC(C)C)C(=O)N2CCC[C@H]2C(=O)N[C@@H](CC(C)C)C(=O)N[C@@H](CC(C)C)C(=O)N[C@@H](C)C(=O)N[C@@H](C)C(=O)N1C", "medium": "HBSS", "pH": "pH 7.4", "solubility": "759 µM"}
{"Structure (SMILES)": "CC(C)N(Cc1ccccc1)C(=O)C(C)(C)C", "medium": "PBS", "time": "2 h", "pH": "pH 7.4", "temperature": "25 °C", "setting": "2% DMSO", "solubility": "325 µM"}
{"Structure (SMILES)": "O=C(NCCCNc1nc(Nc2cccc(NC(=O)N3CCCC3)c2)ncc1I)c1cccs1", "medium": "intestinal pH buffer", "time": "24 h", "solubility": "< 1 µg/mL"}
{"note": "A few entries again:"}
{"Structure (SMILES)": "COC1=C(OC)/C(=C/c2cc(Cc3ccc(Cl)cc3)c(C)[nH]2)N=C1c1ccc[nH]1.Cl", "medium": "potassium phosphate buffer", "time": "1.5 h", "pH": "pH 7.4", "temperature": "room temperature", "setting": "100 mM buffer", "solubility": "8.32 µM"}
{"Structure (SMILES)": "CC[C@H](C)[C@@H]1NC(=O)[C@H](CO)NC(=O)[C@H](CC(C)C)NC(=O)[C@H](CC(C)C)N(C)C(=O)[C@@H](Cc2ccc(O)cc2)NC(=O)[C@@H](Cc2ccc(O)cc2)NC(=O)CSC[C@@H](C(=O)O)NC(=O)CNC(=O)[C@@H](C(C)C)NC(=O)[C@H]2CCCN2C(=O)[C@H](C)NC1=O", "medium": "HBSS", "pH": "pH 7.4", "solubility": "708 µM"}
{"Structure (SMILES)": "CC(C)N(Cc1ccccc1)C(=O)C(C)(C)C", "medium": "PBS", "time": "2 h", "pH": "pH 7.4", "temperature": "25 °C", "setting": "2% DMSO", "solubility": "325 µM"}
